Measurements from different studies.
Protocols differ between the studies behind these lines. ± marks the error that the study gave.
Cell line: A549

Compound	test	conditions	scale	quantity	value
Cc1cc(NS(=O)(=O)c2ccc(NC(=O)/C(C#N)=C/c3ccc(N4CCOCC4)cc3)cc2)no1	cytotoxicity, MTT	–	relative to: HSF over A549 IC50	selectivity index	> 1.83
C=CCOc1c(C)c(O)c(C(=O)/C=C/c2ccccc2)c(OC)c1C	–	–	relative to: CL over A549	selectivity index	0.86
COc1ccc2nccc(Cc3cccc(-c4ccccc4)c3)c2c1	mitochondrial oxygen consumption, Seahorse XF96	10 µM	–	inhibition	81%
O=c1ccn(Cc2cn(-c3cc4ccccc4oc3=O)nn2)c(=O)[nH]1	NCI60 single dose	10 µM	–	growth	98.6%
COCCOCCOCc1n(Cc2ccc3ccccc3n2)c2ccccc2[n+]1Cc1ccc2ccccc2c1.[Br-]	NCI60 five-dose	–	–	TGI	10.6 µM
CCCCCCCCCCCCCCCCCCOc1ccc(CC(=O)OCC[N+]2(C)CCOCC2)cc1	SRB	10 µM	–	growth inhibition	< 0%
COc1cc(C2=CCCc3c2ccc(OC)c3OCc2ccc([N+](=O)[O-])s2)cc(OC)c1OC	cell growth, SRB	4 h exposure then 120 h oxic, oxic exposure then drug removal	–	IC50	0.38 ± 0.03 µM
NC(=O)C1CCN(C(=O)c2ccc(NCc3cnc4nc(N)nc(N)c4n3)cc2)CC1	CellTiter-Glo	10 µM	100 none, 0 cytostatic, -100 cytotoxic	cell growth	-1.03 ± 4.03%
c1ccc2c(Cc3ccc4cn(C5COC5)nc4c3)nccc2c1	mitochondrial oxygen consumption, Seahorse XF96	10 µM	–	inhibition	0%
C#CCN(Cc1cnc2nc(N)nc(N)c2n1)c1ccc(C(=O)N2CCC(C(=O)OC)CC2)cc1	CellTiter-Glo	10 µM	100 none, 0 cytostatic, -100 cytotoxic	cell growth	104 ± 4.42%
O=C1NC(c2ccccc2)(c2ccccc2)C(=O)N1Cc1cn(-c2cc3ccccc3oc2=O)nn1	NCI60 single dose	10 µM	–	growth	91.1%
COc1cc2nccc(Cc3cccc(-c4ccccc4)c3)c2cc1OC	mitochondrial oxygen consumption, Seahorse XF96	10 µM	–	inhibition	76%
COc1c(C)c(OC(C)=O)c(C)c(OC(C)=O)c1C(=O)/C=C/c1ccccc1	–	–	relative to: CL over A549	selectivity index	1.78
Cc1nc(N(Cc2ccccc2)c2ccc3c(c2)/C(=C/c2ccccc2)C(=O)N3Cc2ccccc2)c2ccccc2n1 (mixture of isomers)	–	1.0 µM, 24 h	relative to: untreated	reduction of wound healing rate	48.7%
CCOc1ccc(-c2nc3cc(-c4nc5cc(N6CCN(C)CC6)ccc5[nH]4)ccc3[nH]2)cc1OCC	SRB	10 µM, 48 h	–	growth percent	79.2%
COc1cc(-c2cccc(Cc3ncnc4cc(OC)c(OC)cc34)c2)ccn1	mitochondrial oxygen consumption, Seahorse XF96	10 µM	–	inhibition	17%
O=C1/C(=C/c2ccc3ccccc3c2O)NC(=S)N1c1ccccc1	MTT	–	relative to: BJ1 over A549	selectivity index	2
COc1ccc2c(Cc3cccc(-c4ccccc4)c3)nccc2c1	mitochondrial oxygen consumption, Seahorse XF96	10 µM	–	inhibition	0%
Nc1n[n+]([O-])c2ccccc2[n+]1[O-]	–	4 h, anoxic	–	IC50	6.58 µM
COc1cccc2c1C(=O)c1c(O)c3c(c(O)c1C2=O)C[C@@](O)(C(=O)CO)C[C@@H]3O[C@H]1C[C@H](N)[C@H](O)[C@H](C)O1	WST-1	concentration not given, 72 h, highest tested concentration	–	maximal cytotoxicity	86.2%

Compound	test	conditions	scale	quantity	value
COc1cnc2cccc(N3CCc4c(cc(Cn5ccnc5C)cc4-c4cn(C)nc4C(F)(F)F)C3=O)c2c1	cell growth, inhibitor	120 h	–	EC50	> 30 µM
COc1ccc2c(c1NC(=O)OCc1ccc([N+](=O)[O-])s1)CCC=C2c1cc(OC)c(OC)c(OC)c1	–	4 h, anoxic	–	IC50	6 ± 4.5 µM
COC(=O)C1CCN(C(=O)c2ccc(N(CCO)Cc3cnc4nc(N)nc(N)c4n3)cc2)CC1	CellTiter-Glo	10 µM	100 none, 0 cytostatic, -100 cytotoxic	cell growth	142 ± 14.5%
COc1cc2ccnc(Cc3ccc4cnn(C)c4c3)c2cc1OC	mitochondrial oxygen consumption, Seahorse XF96	10 µM	–	inhibition	67%
CCCCN1CCN(c2ccc3[nH]c(-c4ccc5[nH]c(-c6cc(OC)c(OC)c(OC)c6)nc5c4)nc3c2)CC1	SRB	10 µM, 48 h	–	growth percent	105%
Cc1n(Cc2ccc3ccccc3c2)c2ccccc2[n+]1Cc1ccc2ccccc2c1.[Br-]	NCI60 five-dose	–	–	TGI	3.4 µM
COC(=O)C1CCN(C(=O)Cc2ccc(NCc3cnc4nc(N)nc(N)c4n3)cc2)CC1	CellTiter-Glo	10 µM	100 none, 0 cytostatic, -100 cytotoxic	cell growth	105 ± 2.15%
COc1ccc2c(c1NC(=O)OC(C)c1ccc([N+](=O)[O-])s1)CCC=C2c1cc(OC)c(OC)c(OC)c1 (stereo not shown)	cell growth, SRB	4 h exposure then 120 h oxic, oxic exposure then drug removal	–	IC50	6.79 ± 0.77 µM
COC(=O)C1CCN(C(=O)c2cccc(NCc3cnc4nc(N)nc(N)c4n3)c2)CC1	CellTiter-Glo	10 µM	100 none, 0 cytostatic, -100 cytotoxic	cell growth	148.1 ± 0.88%
COc1ccc(Cc2nccc3ccc(C4COC4)cc23)cc1OC	mitochondrial oxygen consumption, Seahorse XF96	10 µM	–	inhibition	3%
Cc1cc(=O)[nH]c(=O)n1Cc1cn(-c2c3ccccc3nc3ccccc23)nn1	NCI60 single dose	10 µM	–	growth	92.3%
COc1c(C)c(OC(=O)c2ccc(C)cc2)c(C)c(O)c1C(=O)/C=C/c1ccccc1	–	–	relative to: CL over A549	selectivity index	1.13
COc1ccc(Cc2nccc3cc(C4COC4)ccc23)cc1OC	mitochondrial oxygen consumption, Seahorse XF96	10 µM	–	inhibition	91%
CCCCN1CCN(c2ccc3[nH]c(-c4ccc5[nH]c(-c6ccc(OCC)cc6)nc5c4)nc3c2)CC1	SRB	10 µM, 48 h	–	growth percent	86.5%
COc1ccc2c(c1)NC(=O)CN2c1nc(C)nc2ccccc12	flow cytometry	0.001 µM, 24 h	–	cells in G0/G1 phase	56.6%
O=C(NOC[C@H](O)CO)c1ccc(F)c(F)c1Nc1ccc(I)cc1F	–	0.03906 µM, 72 h	–	viability	99.5%
CCCOC(=O)C1CCN(C(=O)c2ccc(N(C)Cc3cnc4nc(N)nc(N)c4n3)cc2)CC1	CellTiter-Glo	10 µM	100 none, 0 cytostatic, -100 cytotoxic	cell growth	-2.32 ± 13.2%
COc1cc(C2=CCCc3c2ccc(OC)c3OCc2cnc([N+](=O)[O-])n2C)cc(OC)c1OC	–	4 h, anoxic	–	IC50	0.64 ± 0.46 µM
Cn1cnc2c(F)c(Nc3ccc(Br)cc3F)c(C(=O)NOCCO)cc21	–	5 µM, 72 h	–	viability	52.4%
CCCN1CCN(c2ccc3[nH]c(-c4ccc5[nH]c(-c6ccc(OCC)c(OCC)c6)nc5c4)nc3c2)CC1	SRB	10 µM, 48 h	–	growth percent	-50.2%

Repeated from above:
Compound	test	conditions	scale	quantity	value
CCCCCCCCCCCCCCCCCCOc1ccc(CC(=O)OCC[N+]2(C)CCOCC2)cc1	SRB	10 µM	–	growth inhibition	< 0%
O=C(NOC[C@H](O)CO)c1ccc(F)c(F)c1Nc1ccc(I)cc1F	–	0.03906 µM, 72 h	–	viability	99.5%
Cc1cc(=O)[nH]c(=O)n1Cc1cn(-c2c3ccccc3nc3ccccc23)nn1	NCI60 single dose	10 µM	–	growth	92.3%
